Measured values from different studies.
Every numbered part comes from another study and shows a few of its results, in no order. ± gives the spread as reported.

Sample 1
Target: Replicase polyprotein 1ab, main protease (rep, Severe acute respiratory syndrome coronavirus 2, UniProt P0DTD1)
Read-out: reporter gene (Gaussia luciferase)
Action: inhibitor
Concentration: 20 µM
Endpoint: inhibition
Compound = COc1ccc2c(O[C@@H]3C[C@H]4C(=O)N[C@]5(C(=O)NS(=O)(=O)C6CC6)C[C@H]5/C=C\CCCCN(C)C(=O)[C@@H]4C3)cc(-c3nc(C(C)C)cs3)nc2c1C; result = -4.31%
Compound = CCOC(=O)[C@@H](Cc1ccc(O)c(O)c1)OC(=O)/C=C/c1ccc(O)c(O)c1; result = -2.24%
Compound = CC1(C)CC[C@@]2(CO)C(=C3C=C[C@@H]4[C@@]5(C)CC[C@H](O)[C@@](C)(CO)[C@@H]5CC[C@@]4(C)[C@]3(C)C[C@@H]2O)C1; result = 0.177%

Single results of other studies
Molecule = KPVETSNSFDVL; test = AIM; test system = peptide, CD8+ T cells from PBMC, human donors; conditions = HLA-B*07:02 restricted, unit not given; how to read = relative to: positive over tested donors; endpoint = frequency of responding donors; result = 33
Molecule = Nc1ncnc2c([C@@H]3N[C@H](CO)[C@@H](O)[C@H]3O)c[nH]c12; target or system = Marburg virus; test = viral replication, antibody staining; test system = HeLa, Musoke; conditions = 6.3 µM, 12 h; endpoint = infected cells; result = 4.4%
Molecule = CC[C@H](C)[C@H](NC(=O)[C@H](CC(C)C)NC(=O)[C@H](Cc1c[nH]c2ccccc12)NC(=O)[C@H](CCC(N)=O)NC(=O)[C@@H](NC(=O)[C@H](Cc1ccccc1)NC(=O)[C@H](C)NC(=O)[C@H](CCCCNC(=O)COCCOCCNC(=O)COCCOCCNC(=O)CC[C@H](NC(=O)CCCCCCCCCCCCCCCCCCC(=O)O)C(=O)O)NC(=O)[C@H](CCC(N)=O)NC(=O)[C@H](C)NC(=O)[C@@H](NC(=O)[C@H](CCCCN)NC(=O)[C@H](CC(=O)O)NC(=O)[C@H](CC(C)C)NC(=O)C(C)(C)NC(=O)[C@@H](NC(=O)[C@H](CO)NC(=O)[C@H](Cc1ccc(O)cc1)NC(=O)[C@H](CC(=O)O)NC(=O)[C@H](CO)NC(=O)[C@@H](NC(=O)[C@H](Cc1ccccc1)NC(=O)[C@@H](NC(=O)CNC(=O)[C@H](CCC(=O)O)NC(=O)C(C)(C)NC(=O)[C@@H](N)Cc1ccc(O)cc1)[C@@H](C)O)[C@@H](C)O)[C@@H](C)CC)[C@@H](C)CC)C(C)C)C(=O)N[C@@H](C)C(=O)NCC(=O)NCC(=O)N1CCC[C@H]1C(=O)N[C@@H](CO)C(=O)N[C@@H](CO)C(=O)NCC(=O)N[C@@H](C)C(=O)N1CCC[C@H]1C(=O)N1CCC[C@H]1C(=O)N1CCC[C@H]1C(=O)N[C@@H](CO)C(N)=O; test system = healthy subjects, single ascending dose; conditions = 2.5 mg, baseline; endpoint = serum lipase; result = 18.5 ± 10.6 U/L
Molecule = LLFNKVTLADAGFIK; target or system = human CD4 T cells; test = AIM; test system = peptide; endpoint = responding donors; result = 8%
Molecule = Cn1cnc(Cn2c(=O)[nH]/c(=N\c3cc4cn(C)nc4cc3Cl)n(Cc3cc(F)c(F)cc3F)c2=O)n1; test system = human, moderate renal impairment; conditions = oral, 375 mg; endpoint = anaemia TEAE, Severe severity; result = 0%
Molecule = CC(C)=CCC[C@]1(C)C=Cc2c(O)c3c(c(CC=C(C)C)c2O1)O[C@]12C(=C[C@@H]4C[C@H]1C(C)(C)O[C@@]2(C/C=C(/C)C(=O)O)C4=O)C3=O; target or system = Spike glycoprotein (Severe acute respiratory syndrome coronavirus 2, UniProt P0DTC2); test = binding, biolayer interferometry; endpoint = Kd; result = 27.2 µM

For quick reference, copied from above (single results of other studies):
Molecule = KPVETSNSFDVL; test = AIM; test system = peptide, CD8+ T cells from PBMC, human donors; conditions = HLA-B*07:02 restricted, unit not given; how to read = relative to: positive over tested donors; endpoint = frequency of responding donors; result = 33
